# Measurements collected from several papers.
# A part holds a random share of what one study measured.

# Series 1
# Target: RNA binding protein fox-1 homolog 2, RRM domain, GST-SBP tag (RBFOX2, Homo sapiens, UniProt O43251-10, residues 100-194)
# Technique: RNA Bind-n-Seq
# Molecule type: RNA
# Medium: in vitro
# Concentration: 365 nM
# Setting: natural RNA segment, single round, ends assumed
# Relative to: no-protein control
# Reading: higher = stronger binding
# Construct (chain): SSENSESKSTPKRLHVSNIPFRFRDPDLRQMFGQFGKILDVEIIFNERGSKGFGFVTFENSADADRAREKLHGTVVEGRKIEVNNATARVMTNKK
Strand,RBNS enrichment (R)
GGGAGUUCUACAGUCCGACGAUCUCAAAUACUCUGUCUGCUAUGGAAAGUUCCAGUGUGCUGACUGGUCUGUGAUUUUGUACCUUGUGAAGGAGACAGAGGGAGGCAGAUGAAUAAACAGUUGCUCUCUGUCCUGGAAUUCUCGGGUGCCAA,0.29
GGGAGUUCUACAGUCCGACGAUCUUUUUGGAAAUGUAGCAUUUUAUACUUUCAAGUGUUAUAAAAAAAAAGAAAAAGAACAAAGAAACCCUUUAUUUCAUUAAAUGAUUUUUUCUGGUGGUUGUCAAGAAACAUGGAAUUCUCGGGUGCCAA,1.04
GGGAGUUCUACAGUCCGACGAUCAGCUUUGAGAACCCUCCUUUUAGUAUAUGAAAAAGCCUAAUGCGCAUUCAUGAGGUUGGAGAGACUAUGAGAAAUAUGUAUAGUGUAUAUUUUAAACAGCUUUGCUUGUAUGGAAUUCUCGGGUGCCAA,2.06
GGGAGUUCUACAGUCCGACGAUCAAGGACCGGCUCAGGCACUGACCCUCUGAGUCACGUGAAUGAGGACGAAGAAUUUGGAAUAGGUUUGGUUACAUCUAUUUCUCAUCCCCUUAUUUUCCACCAUUUAAAAAUGGAAUUCUCGGGUGCCAA,0.353
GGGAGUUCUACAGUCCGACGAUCACCAGUUGGGAUAAGUGUCAGAGUGAGCACCCCCUCAGCCCGUCCUCCACAAGGGACCCUUGAGAUCACUGACACAUCACCCCCAUUUCUCUGCUGGAAAAAACCAGAAUUGGAAUUCUCGGGUGCCAA,0.23
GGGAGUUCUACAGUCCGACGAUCAUGGAGCAGUGGGGAGACACCAGGGCUGCAUUAUUUGAAUUAUUUUGCAGCCACAUGGGACUUUUCUGGGUUGACAAGAGGAUGCUCUAGUCAUGUAAGCCACUAAGAUAUGGAAUUCUCGGGUGCCAA,0.419
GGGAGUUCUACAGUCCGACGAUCUUUUGGCAACUUGUAAAUAAUGUGUAUACCAAGUUUUUAUGAUUAAGGAAUCAAAUUUAUUGAAUUUUAUUAUUGAAAGUUGAAAUAAGAUGUAUGAACAAAAAAAAAUCUGGAAUUCUCGGGUGCCAA,0.844
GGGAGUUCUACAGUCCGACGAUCAGGGACCUCCUCCUUAUUUCUGACUCAUAUCUAAGUAAGGUUCCCCAGGACAGCCACAGUUGUACUGAGGGGGGCUGACAUGUUUGGCAUCCUGGCUAUAGUAUUGUAUAUGGAAUUCUCGGGUGCCAA,0.409
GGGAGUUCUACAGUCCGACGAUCUUUAAUCCCAUACAUUCGAGUUAAGUUUAGUGUUGAUGUUCCAUCAUUCUGGACCUCCCAGGAGUUGUUUAAGAAUGAAUCUCUUACACCUCUACUUUUGCCCCUCUACUUGGAAUUCUCGGGUGCCAA,0.318
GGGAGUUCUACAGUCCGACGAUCUGCACUGAACGCUCUGCUCAGACAGGCCUUUCAUGAAGAGAAGAGUGGGGGAGAGGAUGCAGGGGGGCCCACCCCCACCCCCACAGCUGCCACAGCAUCUCACACCCCAGUGGAAUUCUCGGGUGCCAA,1.01
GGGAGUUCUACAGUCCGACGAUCUGAGAGAAGAGAGACCGAGGGGGGAGAAAGAGCUCUUCAUUUGGAGCAGUCCUUCAAUCUCAGAACCCCAGGAGGCCCCACAGGAGUUGCCCUCCUCCUUCAGCCUGCCCUGGAAUUCUCGGGUGCCAA,0.51
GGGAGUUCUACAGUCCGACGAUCAUUCCAUUCGCAAAUCUCUACUAUCAGGAGAGAAAAGAGAUGAAAUUUAAAACACACAAGCAAAACGUUUCCAUGUAAACAUCUAUUUCUAAACUUAUAUAAUGACCUGAUGGAAUUCUCGGGUGCCAA,0.499

# Series 2
# Target: RING finger protein unkempt homolog, zinc fingers 1-6, GST-SBP tag (UNK, Homo sapiens, UniProt Q9C0B0, residues 30-357)
# UniProt Q9C0B0, sequence (30-357, looked up): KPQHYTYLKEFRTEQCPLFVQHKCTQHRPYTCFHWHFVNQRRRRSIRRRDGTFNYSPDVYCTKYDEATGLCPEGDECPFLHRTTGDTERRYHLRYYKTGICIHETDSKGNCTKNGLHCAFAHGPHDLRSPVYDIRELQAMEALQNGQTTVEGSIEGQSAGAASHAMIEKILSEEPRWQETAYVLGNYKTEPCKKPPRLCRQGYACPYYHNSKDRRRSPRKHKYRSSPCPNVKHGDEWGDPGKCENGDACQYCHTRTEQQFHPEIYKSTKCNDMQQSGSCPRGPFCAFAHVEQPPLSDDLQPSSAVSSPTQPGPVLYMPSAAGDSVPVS
# Technique: RNA Bind-n-Seq
# Molecule type: RNA
# Medium: in vitro
# Concentration: not given
# Setting: RNA with constant flanks, human and mouse sites, ends assumed
# Relative to: input RNA pool
# Reading: higher = stronger binding
Strand,bound/input enrichment [ratio]
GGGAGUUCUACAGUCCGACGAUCACCGUAGAGUUUGCAGAUGAAGUACGAUUGUCCUUCAUUUGUACUGAAGUAGAUUGCAAAGUGGUUCAUGAAUUCAUUGGUGGCUACAUAUUUCUCUCAACACGUGCAAAAGACCAAAACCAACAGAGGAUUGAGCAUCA,0.679
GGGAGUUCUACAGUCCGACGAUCCAUGCACCUCUGGAGCAGCAACACAUUACCCACAAGGAGCCCCUGGUAGCAAAUGAUAUCCUGAACCAUCCCAACUUUGUGAAGAAGAACUUGUGUAACAGCUUCAGUGACCGGACAGUGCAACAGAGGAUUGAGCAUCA,0.302
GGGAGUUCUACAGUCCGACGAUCGUCGGUUUCAUUUUCCUUUGGAAUUUCUGCUUUACAGACAGAACAAUGGCAGCCCGAGUACUUAUAAUUGGCAGUGGAGGAAGGGAACAUACGCUGGCCUGGAAACUUGCACAGUCUCAUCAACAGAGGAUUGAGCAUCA,0.357
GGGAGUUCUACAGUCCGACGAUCGAGGAGGACUCUGACGACGACGAAGCGCUCAGCCCACCAAAACGAGGAAGACCCCAAGUUAGAUUGCCAAUUAAAACAAAAGGGAGAUUUGGCCCUUCUUUCCCAAGUCGCAGCCAACGACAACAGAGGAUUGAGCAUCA,4.51
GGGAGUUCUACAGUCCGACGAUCGUAGCUAAGUUUCUUGAUGCUUCUGGAGCAAAACUUGACUACCGCCGCUAUGCAGAAACACUCUUUGACAUUCUGGUGGCUGGCGGAAUGCUGGCCCCGGGUGGUACACUGGCAGAUGACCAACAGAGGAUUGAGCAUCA,0.178
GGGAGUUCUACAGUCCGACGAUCUGGCAUGAGCUUUUGAAACCUCAAAGCUCACUUCCAGUGACACACUGUCUGGACAAGGUCAUACCUCCUUAUCCUUCUAAGACUUCUUAAAUAGUGCCACUCCCUGAUGACAAAACAUUCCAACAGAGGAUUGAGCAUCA,0.102
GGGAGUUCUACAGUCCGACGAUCUGGUCUUCAGAGAGCAACUAUCCUCCCCAAUACUUGAUUCUGAAGCUUGAAAGGCCUGCUAUCGUUCAGAAUAUUACAUUUGGAAAAUAUGAGAAAACUCAUGUCUGCAAUUUGAAGAAACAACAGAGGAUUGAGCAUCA,0.138
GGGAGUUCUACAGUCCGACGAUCAACAAAGAUUAUCACAAGGAUGUUCGUAAUAACUUUUUGCCACCAAUUAUUGCACGUUUCAUUAGAGUGAACCCUGUCCAGUGGCAACAGAAAAUUGCCAUGAAAGUGGAACUGCUCGGACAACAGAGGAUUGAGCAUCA,0.183
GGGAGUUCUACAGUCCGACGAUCGAAAUUAAAAAUUACACAAAAGAGCAUAAUAAUUUAAUUCUGCUAAAUAAGGAUGUUCAACAGGAAAGCAGUGAGCAAAAAAAUAAAUCAACAGACAAAGGUGAAAAGAAGCCAGACAGCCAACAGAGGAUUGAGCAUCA,0.95
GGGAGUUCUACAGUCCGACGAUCUCUCCCAUUCAAAUGUCAUCAUCCUUUUCUAUCUUGCAGGCAGGAUUGAUUUGAACAGGGAUUACUUCAACACACAUUUGUUUGUCUUUAUCUUUGUGUCAUUAUUGCAUGAUGUUGUUCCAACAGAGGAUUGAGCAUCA,0.139
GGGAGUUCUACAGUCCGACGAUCUAUGAUUUGGUUGCAGGAAGCAAUUGCCUAAAAAGCAGUUAUGUCCUCAGCAAAUCAAGAGCCCUUGAACAUUUCCCAAUGCUCCAGAAGGACAAACUGGUAGGAGCAAUUGUCUACUAUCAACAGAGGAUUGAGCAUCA,0.102

# Series 3
# Target: Fragile X messenger ribonucleoprotein 1, C-terminal low-complexity region (Fmr1, Mus musculus, UniProt P35922)
# Technique: RNA Bind-n-Seq
# Molecule type: RNA
# Medium: in vitro
# Concentration: 200 nM
# Setting: whole 134-nt RNA, ends assumed
# With: 150 mM KCl
# Relative to: input library
# Reading: higher = stronger binding
Strand,log2 enrichment
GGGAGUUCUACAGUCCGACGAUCAAGUCCUGUGCUACACAUCGUAUGUACCGAAUCGGGUUUUUGGGUGGGAAAAAGGGAAAGUAUUAUGUUACGCCGUUCGGAUCUGCACUUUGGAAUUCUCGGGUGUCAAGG,0.643
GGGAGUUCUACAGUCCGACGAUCGCAGGAAGUAAAAACAAAUGGAAAUGCUUCGGAUAGUGGCAGGGGUGGGGGUUGCUAAGGAAAGGGUGGGAUGGGAGUGGGUAAAGAAAUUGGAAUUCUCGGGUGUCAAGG,0.534
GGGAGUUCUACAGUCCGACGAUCAAGUCCUGUGCUACACAUCGUAUGUACCGAAUCGGGGUUUUGGGUUUUGGUUUUGGGAAAGUAUUAUGUUACGCCGUUCGGAUCUGCACUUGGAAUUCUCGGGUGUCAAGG,-0.0406
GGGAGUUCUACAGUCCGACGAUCUUUCCAAGAAGUGCACUGAAAAUGACAUCCGAGUCAUGUUCUCUUCGUUUGGACAGAUUGAAGAAUGCCGGAUAUUGCGGGGACCUGAUGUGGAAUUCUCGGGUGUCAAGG,0.00412
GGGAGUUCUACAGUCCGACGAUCGCAGGAUGUAAAAACAAAUGGAAAUGCUUCGGAUAGUGGCAGGGGUGGGGGUUGCUAAGGAAAGGGUGGGAUGGGAGUGGGUAAAGAGUUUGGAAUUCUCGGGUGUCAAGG,0.51
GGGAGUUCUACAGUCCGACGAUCCAAGUCCUGUGCUACACAUCGUAUGUACCGAAUCGGGUUUGGGGUUUGGGUUUGGAAAGUAUUAUGUUACGCCGUUCGGAUCUGCACUUCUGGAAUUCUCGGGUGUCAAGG,-0.0142
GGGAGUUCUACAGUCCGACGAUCUCAAGUCCUGUGCUACACAUCGUAUGUACCGAAUCGGGGCCGGGGCCGGCCGGGAAAGUAUUAUGUUACGCCGUUCGGAUCUGCACUUCCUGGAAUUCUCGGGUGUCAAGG,-0.0953
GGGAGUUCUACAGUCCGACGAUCUUGACGAGGCCGGCCCGGGAGAUGAGACCACCGGCCAGGAAGUCAUUGUCAUUCAGGACACGGGCUUUUCUGUGAAGAUCCUCGCCCCUGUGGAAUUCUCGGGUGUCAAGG,-1.68
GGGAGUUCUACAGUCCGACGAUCUUUUGCAUUUAGGGUUUUAACCAAGAAGAUCUGGAAGAAGAAAAAGGUGAAACACAGGUAAAAGAAGCAGAAGAUUCAGAUUCUGAUGAUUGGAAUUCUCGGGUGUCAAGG,-1.96
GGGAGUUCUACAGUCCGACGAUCUAACUUUAGAGGAGGAUCUGAUGGAUAUGGCAGUGGACGUGGAUUUGGGGAUGGCUAUAAUGGGUAUGGAGGAGGUCCUGGAGGUGGCAAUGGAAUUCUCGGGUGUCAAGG,0.296
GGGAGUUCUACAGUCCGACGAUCUAACUUUAGAGGAGGAUCUGAUGGAUAUGGCAGUGGACGUGGAUUUGGGGAUGGCUAUAAUGGGUAUGGAGGAGGACCUGGAGGUGGAAAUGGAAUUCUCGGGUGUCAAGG,0.0786
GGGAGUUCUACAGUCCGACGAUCUCAAGUCCUGUGCUACACAUCGUAUGUACCGAAUCGGAAAAAAAGGAAAGGAGGAAAGUAUUAUGUUACGCCGUUCGGAUCUGCACUUCCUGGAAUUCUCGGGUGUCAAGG,-0.525
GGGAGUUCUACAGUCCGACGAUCUGGGAGGUGGAUUUUGUUUAUUUUUUUAGCUCAUUUCCAGGGGUGGGAAUUUUUUUUUAAUAUGUGUUAUGAAUAAAGUUGUUUUUGAAAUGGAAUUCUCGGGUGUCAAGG,0.159
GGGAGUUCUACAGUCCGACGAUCCUGUGCUACACAUCGUAUGUACCGAAUCGGGGCCCCCCCGGCCCCCCCGGGGCCCCCCCGGGAAAGUAUUAUGUUACGCCGUUCGGAUCUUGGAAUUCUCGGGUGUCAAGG,-1.04

# Series 4
# Target: Sal-like protein 4, full length isoform B (SALL4, Homo sapiens, UniProt Q9UJQ4-2, residues 1-616)
# Technique: universal PBM
# Molecule type: double-stranded DNA, one strand shown
# Medium: in vitro
# Concentration: not given
# Setting: 8-mer, flanks averaged, mean of replicates
# Reading: higher = stronger binding
Strand,E-score
CACGTGCC,-0.128
CACATTTA,0.288
GAAACAAC,-0.0949
GACGGTGA,-0.174
CCGGCCGG,-0.284
ACCCTTAT,0.17
CCCCTTTA,-0.0135
ACGTACTG,0.0275
CCACTAGA,-0.0682
TAGCGGAA,-0.157
ACACGGGT,-0.158
AATTACAG,0.255
ACTCGCCC,-0.253
ACTTTGTG,0.0997
AGGAGCAA,-0.11
CCCTGTGC,-0.279
AAAAGGCG,0.0188
CATAAAGA,0.307
GCACGACA,-0.245
CCCGGCAC,-0.353
CAATACAC,0.239
ATAGGCGG,0.0467
CTTACACC,-0.135
CGAACAGC,-0.159
GTGCTGCA,-0.0706
